Measured values gathered from unrelated publications.
Every numbered part comes from another study and shows a few of its results, in no order.
Chain of UniProt Q9UM73 (whole entry, unmodified, looked up): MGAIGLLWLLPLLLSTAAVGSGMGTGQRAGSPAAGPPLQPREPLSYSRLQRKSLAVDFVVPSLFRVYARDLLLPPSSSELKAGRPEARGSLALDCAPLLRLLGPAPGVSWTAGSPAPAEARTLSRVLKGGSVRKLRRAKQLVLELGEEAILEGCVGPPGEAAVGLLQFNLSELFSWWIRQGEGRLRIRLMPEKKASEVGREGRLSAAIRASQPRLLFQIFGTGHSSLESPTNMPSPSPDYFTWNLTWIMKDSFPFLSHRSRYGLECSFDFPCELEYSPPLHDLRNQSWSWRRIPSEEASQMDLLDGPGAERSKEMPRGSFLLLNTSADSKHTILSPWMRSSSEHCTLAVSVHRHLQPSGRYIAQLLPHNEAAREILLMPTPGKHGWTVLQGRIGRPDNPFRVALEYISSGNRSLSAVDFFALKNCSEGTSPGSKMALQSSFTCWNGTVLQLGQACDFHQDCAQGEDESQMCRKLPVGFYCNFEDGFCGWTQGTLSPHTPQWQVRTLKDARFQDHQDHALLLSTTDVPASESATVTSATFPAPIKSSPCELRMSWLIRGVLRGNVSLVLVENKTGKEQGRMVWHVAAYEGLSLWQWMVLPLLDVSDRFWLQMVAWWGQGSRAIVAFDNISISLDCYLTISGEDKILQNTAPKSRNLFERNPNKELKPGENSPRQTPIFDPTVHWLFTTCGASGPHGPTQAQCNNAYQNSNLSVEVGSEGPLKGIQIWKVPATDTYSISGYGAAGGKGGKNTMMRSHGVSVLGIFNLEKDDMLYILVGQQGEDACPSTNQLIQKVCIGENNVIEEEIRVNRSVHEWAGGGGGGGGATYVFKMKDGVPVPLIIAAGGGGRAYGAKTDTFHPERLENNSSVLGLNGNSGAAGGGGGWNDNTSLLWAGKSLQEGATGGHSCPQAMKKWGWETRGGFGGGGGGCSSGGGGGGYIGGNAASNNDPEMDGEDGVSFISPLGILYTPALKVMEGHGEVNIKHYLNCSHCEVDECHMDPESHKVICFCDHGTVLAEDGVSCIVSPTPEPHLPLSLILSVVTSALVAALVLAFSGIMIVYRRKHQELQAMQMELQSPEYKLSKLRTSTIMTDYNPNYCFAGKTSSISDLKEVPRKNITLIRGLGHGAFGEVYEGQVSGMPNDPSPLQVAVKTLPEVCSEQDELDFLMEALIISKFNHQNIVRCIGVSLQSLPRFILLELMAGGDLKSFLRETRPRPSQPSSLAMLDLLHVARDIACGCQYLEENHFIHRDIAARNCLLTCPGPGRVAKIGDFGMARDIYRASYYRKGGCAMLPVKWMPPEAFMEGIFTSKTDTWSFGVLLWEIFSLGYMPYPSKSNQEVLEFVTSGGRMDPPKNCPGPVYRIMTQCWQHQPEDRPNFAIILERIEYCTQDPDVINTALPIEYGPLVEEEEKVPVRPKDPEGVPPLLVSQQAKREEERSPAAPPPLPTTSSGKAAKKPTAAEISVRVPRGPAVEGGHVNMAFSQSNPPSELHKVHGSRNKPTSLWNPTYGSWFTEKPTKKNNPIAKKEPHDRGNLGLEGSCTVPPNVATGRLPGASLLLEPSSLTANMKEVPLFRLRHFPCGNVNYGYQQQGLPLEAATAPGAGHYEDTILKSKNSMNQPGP
Chain of UniProt O96017 (whole entry, looked up): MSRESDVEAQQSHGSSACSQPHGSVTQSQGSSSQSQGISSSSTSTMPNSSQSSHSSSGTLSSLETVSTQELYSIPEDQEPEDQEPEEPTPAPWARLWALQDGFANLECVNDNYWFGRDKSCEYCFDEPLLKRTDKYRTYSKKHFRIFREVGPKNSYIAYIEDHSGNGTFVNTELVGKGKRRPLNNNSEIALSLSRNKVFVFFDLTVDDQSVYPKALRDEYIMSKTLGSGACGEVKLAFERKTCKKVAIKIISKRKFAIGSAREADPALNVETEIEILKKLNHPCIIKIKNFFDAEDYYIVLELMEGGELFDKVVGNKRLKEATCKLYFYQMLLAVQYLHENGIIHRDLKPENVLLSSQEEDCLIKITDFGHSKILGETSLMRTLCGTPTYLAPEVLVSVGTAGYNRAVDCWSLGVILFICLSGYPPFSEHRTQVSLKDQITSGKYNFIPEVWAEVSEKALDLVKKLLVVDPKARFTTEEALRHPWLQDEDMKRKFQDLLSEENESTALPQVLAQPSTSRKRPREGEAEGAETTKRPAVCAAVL
Chain of UniProt P51955 (whole entry, looked up): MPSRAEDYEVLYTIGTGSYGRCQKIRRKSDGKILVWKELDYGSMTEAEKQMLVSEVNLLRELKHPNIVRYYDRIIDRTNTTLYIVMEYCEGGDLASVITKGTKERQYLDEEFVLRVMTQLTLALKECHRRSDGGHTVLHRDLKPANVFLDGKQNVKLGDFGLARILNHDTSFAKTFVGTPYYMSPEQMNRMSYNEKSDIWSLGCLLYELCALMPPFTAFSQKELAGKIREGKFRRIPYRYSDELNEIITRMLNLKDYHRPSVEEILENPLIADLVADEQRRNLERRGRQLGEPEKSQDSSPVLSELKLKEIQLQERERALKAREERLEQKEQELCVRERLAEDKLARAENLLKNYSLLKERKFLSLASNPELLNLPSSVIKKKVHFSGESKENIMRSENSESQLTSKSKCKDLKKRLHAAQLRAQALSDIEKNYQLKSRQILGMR
Chain of UniProt P45984 (whole entry, looked up): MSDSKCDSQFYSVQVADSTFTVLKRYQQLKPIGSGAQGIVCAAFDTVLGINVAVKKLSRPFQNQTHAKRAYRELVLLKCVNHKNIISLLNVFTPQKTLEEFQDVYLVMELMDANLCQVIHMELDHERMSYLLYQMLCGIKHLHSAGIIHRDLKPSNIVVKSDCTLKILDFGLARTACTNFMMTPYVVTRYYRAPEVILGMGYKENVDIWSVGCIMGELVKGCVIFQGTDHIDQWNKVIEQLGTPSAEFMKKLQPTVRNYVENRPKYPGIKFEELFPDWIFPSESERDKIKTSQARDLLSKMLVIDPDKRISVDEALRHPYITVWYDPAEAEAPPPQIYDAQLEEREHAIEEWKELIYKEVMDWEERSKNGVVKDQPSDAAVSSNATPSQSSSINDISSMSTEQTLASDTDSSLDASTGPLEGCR
Chain of UniProt Q00535 (whole entry, looked up): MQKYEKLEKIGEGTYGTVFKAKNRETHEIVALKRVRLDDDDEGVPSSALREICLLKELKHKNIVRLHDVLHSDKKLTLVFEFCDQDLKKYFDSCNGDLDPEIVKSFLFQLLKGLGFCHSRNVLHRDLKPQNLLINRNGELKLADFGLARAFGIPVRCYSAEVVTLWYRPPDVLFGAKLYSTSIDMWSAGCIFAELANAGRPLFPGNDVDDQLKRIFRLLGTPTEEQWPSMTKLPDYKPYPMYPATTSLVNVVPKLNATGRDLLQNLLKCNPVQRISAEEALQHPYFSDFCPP
Chain of UniProt Q9Y2H1 (whole entry, looked up): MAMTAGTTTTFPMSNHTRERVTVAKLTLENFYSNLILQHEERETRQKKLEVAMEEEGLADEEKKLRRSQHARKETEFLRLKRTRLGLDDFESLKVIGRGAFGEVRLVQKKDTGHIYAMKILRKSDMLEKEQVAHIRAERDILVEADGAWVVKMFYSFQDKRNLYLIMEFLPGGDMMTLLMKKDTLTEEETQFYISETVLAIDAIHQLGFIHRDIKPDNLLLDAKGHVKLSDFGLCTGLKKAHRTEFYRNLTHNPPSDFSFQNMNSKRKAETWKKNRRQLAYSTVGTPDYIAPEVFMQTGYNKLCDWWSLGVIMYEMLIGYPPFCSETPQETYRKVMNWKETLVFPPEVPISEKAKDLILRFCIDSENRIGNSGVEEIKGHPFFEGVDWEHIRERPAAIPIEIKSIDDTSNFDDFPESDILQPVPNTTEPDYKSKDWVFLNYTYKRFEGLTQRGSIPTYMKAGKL
Chain of UniProt Q15831 (whole entry, looked up): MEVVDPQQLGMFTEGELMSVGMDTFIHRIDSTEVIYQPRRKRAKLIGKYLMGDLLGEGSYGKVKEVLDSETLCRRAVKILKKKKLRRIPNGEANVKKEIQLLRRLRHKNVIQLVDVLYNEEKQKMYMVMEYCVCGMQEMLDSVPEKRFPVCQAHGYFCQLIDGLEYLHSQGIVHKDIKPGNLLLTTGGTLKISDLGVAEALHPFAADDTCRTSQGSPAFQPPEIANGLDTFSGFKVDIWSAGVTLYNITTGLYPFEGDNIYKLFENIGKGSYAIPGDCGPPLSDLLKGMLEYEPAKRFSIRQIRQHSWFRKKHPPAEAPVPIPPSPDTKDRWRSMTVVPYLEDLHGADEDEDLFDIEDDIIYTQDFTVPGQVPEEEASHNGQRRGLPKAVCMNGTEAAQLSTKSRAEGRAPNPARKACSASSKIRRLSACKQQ

Study 1 — technique: competition with immobilised ligand; tested at: 1 µM
Structure (SMILES): CNC(=O)Nc1ccc2c(c1)CC[C@@]21OC(=O)N(CC(=O)N(Cc2ccc(F)cc2)[C@@H](C)C(F)(F)F)C1=O
COQ8A (Homo sapiens, UniProt Q8NI60); cell-free assay — remaining binding: 74%.
It gave 69% for remaining binding (CDKL5 (Homo sapiens, UniProt O76039); binding).
The remaining binding was 93% (PDGFRA (Homo sapiens, UniProt P16234); cell-free assay).
For PLK4 (Homo sapiens, UniProt O00444); cell-free assay: remaining binding read 100%.
For STK32B (Homo sapiens, UniProt Q9NY57); cell-free assay: remaining binding read 90%.
For PIK3C2G (Homo sapiens, UniProt O75747); cell-free assay: remaining binding read 75%.
MAPK8 (Homo sapiens, UniProt P45983); cell-free assay — remaining binding: 65%.
CAMK1D (Homo sapiens, UniProt Q8IU85); cell-free assay — remaining binding: 94%.
It gave 91% for remaining binding (MUSK (Homo sapiens, UniProt O15146); cell-free assay).
The remaining binding was 88% (DYRK2 (Homo sapiens, UniProt Q92630); cell-free assay).
The remaining binding was 81% (Insulin receptor (INSR, Homo sapiens, UniProt P06213); cell-free assay).
It gave 90% for remaining binding (MYLK3 (Homo sapiens, UniProt Q32MK0); cell-free assay).
BRSK2 (Homo sapiens, UniProt Q8IWQ3); cell-free assay — remaining binding: 70%.
For NEK2 (Homo sapiens, UniProt P51955); cell-free assay: remaining binding read 100%.
For ALK (Homo sapiens, UniProt Q9UM73, L1196M); cell-free assay: remaining binding read 75%.

Study 2
SMILES: Cc1ccc(NC(=O)c2ccnc(C(F)(F)F)c2)cc1-c1cc(OCCO)nc(N2CCOCC2)c1
The remaining binding was 74% (Tyrosine-protein kinase ABL1, phosphorylated (ABL1, Homo sapiens, UniProt P00519); binding, competition with immobilised ligand; 1 µM).
It gave 85% for remaining binding (Ribosomal protein S6 kinase alpha-1, N-terminal kinase domain (RPS6KA1, Homo sapiens, UniProt Q15418); binding, competition with immobilised ligand; 1 µM).
The remaining binding was 100% (CHEK2 (Homo sapiens, UniProt O96017); binding; 1 µM).
STK38L (Homo sapiens, UniProt Q9Y2H1); binding; 1 µM — remaining binding: 96%.
EPHA5 (Homo sapiens, UniProt P54756); binding, competition with immobilised ligand; 1 µM — remaining binding: 92%.
It gave 100% for remaining binding (EIF2AK4 (Homo sapiens, UniProt Q9P2K8, S808G); binding; 1 µM).
The remaining binding was 100% (CLK4 (Homo sapiens, UniProt Q9HAZ1); binding; 1 µM).
For MAP3K14 (Homo sapiens, UniProt Q99558); binding; 1 µM: remaining binding read 100%.
Receptor-type tyrosine-protein kinase FLT3, autoinhibited (FLT3, Homo sapiens, UniProt P36888); binding, competition with immobilised ligand; 1 µM — remaining binding: 99%.
For ALK (Homo sapiens, UniProt Q9UM73, L1196M); binding; 1 µM: remaining binding read 98%.
For FLT3 ITD mutant, human; scanMAX kinase panel; 1000 nM; reference: control: remaining binding read 100%.

Study 3 — cell line: A-375; tested at: 100 µM; time: 18 h
The viability of `CC1=CC(=O)c2ccccc2C1=O` is reported as 15.7%.
For `O=C(O)c1ccc(O)c(O)c1`, the viability was 115%.
For `Nc1nc(Cl)nc2c1ncn2[C@@H]1O[C@H](CO)[C@@H](O)[C@@H]1F`, the viability was 65.4%.
The viability of `CCN(CC)CCc1nc(-c2ccccc2)no1` is reported as 70%.
The viability of `Clc1ccc(C(Cn2ccnc2)OCc2ccsc2Cl)c(Cl)c1` (centres unmarked) is reported as 8.67%.
`NNc1nncc2ccccc12` gave a viability of 112%.
For `CCN1CCN(C(=O)N[C@@H](C(=O)N[C@@H]2C(=O)N3[C@@H]2SC(C)(C)[C@@H]3C(=O)O)c2ccccc2)C(=O)C1=O`, the viability was 97.7%.
The viability of `Cc1ccc(Cl)c(Nc2ccccc2C(=O)O)c1Cl` is reported as 58.1%.
`CC1(C)O[C@@H]2C[C@H]3[C@@H]4C[C@H](F)C5=CC(=O)C=C[C@]5(C)[C@@]4(F)[C@@H](O)C[C@]3(C)[C@]2(C(=O)CO)O1` has a viability of 96.6%.
For `CC(C)(S)C(N)C(=O)O` (racemic), the viability was 109%.
`CCN1CCN(C(=O)N[C@@H](C(=O)N[C@@H]2C(=O)N3C(C(=O)O)=C(CSc4nnnn4C)CS[C@H]23)c2ccc(O)cc2)C(=O)C1=O` has a viability of 88.8%.
`O=C(O)CCCN1CCC(O[C@@H](c2ccc(Cl)cc2)c2ccccn2)CC1` gave a viability of 101%.

Study 4 — observed: enzyme activity; action: inhibitor; tested at: 0.5 µM; reference: control
Compound: COc1cc2ncnc(Nc3ccc(OCc4ccccc4)cc3)c2cc1OC
It gave 102% for remaining activity (STK11 (Homo sapiens, UniProt Q15831)).
The remaining activity was 107% (NEK2 (Homo sapiens, UniProt P51955)).
GRK3 (Homo sapiens, UniProt P35626) — remaining activity: 99.6%.
For Tyrosine-protein kinase Lyn, isoform B (LYN, Homo sapiens, UniProt P07948): remaining activity read 92.8%.
IKBKE (Homo sapiens, UniProt Q14164) — remaining activity: 99.7%.
The remaining activity was 95.8% (STK39 (Homo sapiens, UniProt Q9UEW8)).
STK10 (Homo sapiens, UniProt O94804) — remaining activity: 68.2%.
The remaining activity was 110% (OXSR1 (Homo sapiens, UniProt O95747)).
For TGFBR1 (Homo sapiens, UniProt P36897): remaining activity read 95.7%.
IKBKB (Homo sapiens, UniProt O14920) — remaining activity: 103%.
CAMKK2 (Homo sapiens, UniProt Q96RR4) — remaining activity: 99.7%.
The remaining activity was 95.8% (CAMK2D (Homo sapiens, UniProt Q13557)).
TGFBR2 (Homo sapiens, UniProt P37173) — remaining activity: 121%.
cGMP-dependent protein kinase 1, isoform beta (PRKG1, Homo sapiens, UniProt Q13976) — remaining activity: 90.3%.
It gave 106% for remaining activity (MAPK9 (Homo sapiens, UniProt P45984)).
It gave 97.4% for remaining activity (Protein kinase C beta type, isoform beta-I (PRKCB, Homo sapiens, UniProt P05771)).
For Cyclin-dependent kinase 4, with cyclin D1 (CDK4, Homo sapiens, UniProt P11802): remaining activity read 99.2%.
MAP3K3 (Homo sapiens, UniProt Q99759) — remaining activity: 88.7%.
It gave 93.9% for remaining activity (PRKCA (Homo sapiens, UniProt P17252)).
For Cyclin-dependent kinase 5, with p25 (CDK5, Homo sapiens, UniProt Q00535): remaining activity read 97.8%.
For DAPK2 (Homo sapiens, UniProt Q9UIK4): remaining activity read 99.9%.
PRKACA (Homo sapiens, UniProt P17612) — remaining activity: 101%.
It gave 98.5% for remaining activity (DAPK1 (Homo sapiens, UniProt P53355)).
It gave 14.2% for remaining activity (CHEK2 (Homo sapiens, UniProt O96017)).

Excerpt of the above (study 1):
The remaining binding was 93% (PDGFRA (Homo sapiens, UniProt P16234); cell-free assay).
For PLK4 (Homo sapiens, UniProt O00444); cell-free assay: remaining binding read 100%.
For STK32B (Homo sapiens, UniProt Q9NY57); cell-free assay: remaining binding read 90%.
For PIK3C2G (Homo sapiens, UniProt O75747); cell-free assay: remaining binding read 75%.
MAPK8 (Homo sapiens, UniProt P45983); cell-free assay — remaining binding: 65%.
CAMK1D (Homo sapiens, UniProt Q8IU85); cell-free assay — remaining binding: 94%.
It gave 91% for remaining binding (MUSK (Homo sapiens, UniProt O15146); cell-free assay).
The remaining binding was 88% (DYRK2 (Homo sapiens, UniProt Q92630); cell-free assay).
